Measured values collected from several papers.
A part holds a random share of what one study measured. Several values in a cell are separate wells, animals, samples, runs or records.
Sequence of UniProt Q5XXA6 (whole entry, unmodified, looked up): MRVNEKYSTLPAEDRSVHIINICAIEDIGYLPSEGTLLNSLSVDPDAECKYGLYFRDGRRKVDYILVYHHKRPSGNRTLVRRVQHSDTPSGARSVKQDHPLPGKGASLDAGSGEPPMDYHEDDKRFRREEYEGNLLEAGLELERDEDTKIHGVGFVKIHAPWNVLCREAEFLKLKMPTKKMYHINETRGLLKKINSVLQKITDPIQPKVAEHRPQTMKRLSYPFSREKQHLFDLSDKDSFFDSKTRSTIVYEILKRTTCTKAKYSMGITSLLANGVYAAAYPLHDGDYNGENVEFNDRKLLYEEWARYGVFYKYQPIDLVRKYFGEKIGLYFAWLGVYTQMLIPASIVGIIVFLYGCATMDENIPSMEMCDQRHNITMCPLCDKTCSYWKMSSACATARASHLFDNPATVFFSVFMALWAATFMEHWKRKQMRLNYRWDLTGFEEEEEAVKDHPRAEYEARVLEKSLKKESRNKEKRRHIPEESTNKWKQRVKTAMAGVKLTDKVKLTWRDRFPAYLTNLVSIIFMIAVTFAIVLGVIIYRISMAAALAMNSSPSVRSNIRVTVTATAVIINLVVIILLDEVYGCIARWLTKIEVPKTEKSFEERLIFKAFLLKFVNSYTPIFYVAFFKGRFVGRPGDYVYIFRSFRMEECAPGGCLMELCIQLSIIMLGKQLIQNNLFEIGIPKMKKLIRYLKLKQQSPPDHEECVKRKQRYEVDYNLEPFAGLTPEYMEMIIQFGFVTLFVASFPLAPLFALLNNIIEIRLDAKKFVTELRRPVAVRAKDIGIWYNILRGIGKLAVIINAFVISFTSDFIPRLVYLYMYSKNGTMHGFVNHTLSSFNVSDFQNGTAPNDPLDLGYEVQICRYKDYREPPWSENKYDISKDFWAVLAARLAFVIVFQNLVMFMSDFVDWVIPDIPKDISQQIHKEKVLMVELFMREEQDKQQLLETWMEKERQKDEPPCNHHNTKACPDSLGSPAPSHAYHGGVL
Sequence of UniProt Q8WU08 (whole entry, looked up): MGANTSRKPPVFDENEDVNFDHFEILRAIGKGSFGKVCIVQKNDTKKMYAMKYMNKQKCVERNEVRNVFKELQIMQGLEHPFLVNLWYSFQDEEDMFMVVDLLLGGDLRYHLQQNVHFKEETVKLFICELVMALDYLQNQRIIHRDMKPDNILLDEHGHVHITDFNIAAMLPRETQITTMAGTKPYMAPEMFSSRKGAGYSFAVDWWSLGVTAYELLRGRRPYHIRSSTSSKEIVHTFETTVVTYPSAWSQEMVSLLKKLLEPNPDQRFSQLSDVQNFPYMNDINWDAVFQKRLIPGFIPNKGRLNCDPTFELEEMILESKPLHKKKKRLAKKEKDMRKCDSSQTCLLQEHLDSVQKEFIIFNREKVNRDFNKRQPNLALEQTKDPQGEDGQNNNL
Sequence of UniProt Q9BUB5 (whole entry, looked up): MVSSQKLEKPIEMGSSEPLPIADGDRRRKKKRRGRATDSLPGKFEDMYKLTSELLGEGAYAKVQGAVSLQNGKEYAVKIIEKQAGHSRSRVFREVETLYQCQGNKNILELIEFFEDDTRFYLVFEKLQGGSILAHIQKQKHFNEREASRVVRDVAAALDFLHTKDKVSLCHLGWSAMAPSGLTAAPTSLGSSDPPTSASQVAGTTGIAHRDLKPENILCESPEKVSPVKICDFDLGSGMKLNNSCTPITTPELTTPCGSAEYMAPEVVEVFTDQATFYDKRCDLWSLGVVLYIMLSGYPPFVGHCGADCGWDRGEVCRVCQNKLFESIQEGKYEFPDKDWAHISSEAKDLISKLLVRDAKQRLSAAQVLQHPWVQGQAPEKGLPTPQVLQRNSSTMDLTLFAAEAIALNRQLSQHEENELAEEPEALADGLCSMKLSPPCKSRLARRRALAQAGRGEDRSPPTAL
Sequence of UniProt P57078 (whole entry, looked up): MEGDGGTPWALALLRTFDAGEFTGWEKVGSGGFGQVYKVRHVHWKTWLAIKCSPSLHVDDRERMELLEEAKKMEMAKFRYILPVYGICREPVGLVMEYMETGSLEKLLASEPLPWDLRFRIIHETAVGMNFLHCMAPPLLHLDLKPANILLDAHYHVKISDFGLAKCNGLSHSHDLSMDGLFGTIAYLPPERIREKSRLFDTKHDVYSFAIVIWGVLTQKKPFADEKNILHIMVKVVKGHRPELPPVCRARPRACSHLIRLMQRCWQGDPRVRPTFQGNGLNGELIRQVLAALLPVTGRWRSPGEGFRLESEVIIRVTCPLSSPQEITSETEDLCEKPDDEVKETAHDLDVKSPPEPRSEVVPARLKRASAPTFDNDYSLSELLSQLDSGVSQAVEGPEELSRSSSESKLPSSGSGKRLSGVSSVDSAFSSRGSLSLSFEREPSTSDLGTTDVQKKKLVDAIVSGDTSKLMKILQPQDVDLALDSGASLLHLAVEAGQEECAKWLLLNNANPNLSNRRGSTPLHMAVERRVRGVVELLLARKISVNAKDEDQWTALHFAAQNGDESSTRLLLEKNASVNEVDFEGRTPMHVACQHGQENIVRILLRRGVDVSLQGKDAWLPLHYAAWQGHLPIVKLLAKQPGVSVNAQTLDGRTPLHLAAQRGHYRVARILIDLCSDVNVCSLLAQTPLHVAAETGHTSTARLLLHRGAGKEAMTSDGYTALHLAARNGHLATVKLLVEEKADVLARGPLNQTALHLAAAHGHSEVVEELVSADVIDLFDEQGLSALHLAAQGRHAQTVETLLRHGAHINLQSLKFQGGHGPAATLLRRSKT
Sequence of UniProt Q96Q40 (whole entry, looked up): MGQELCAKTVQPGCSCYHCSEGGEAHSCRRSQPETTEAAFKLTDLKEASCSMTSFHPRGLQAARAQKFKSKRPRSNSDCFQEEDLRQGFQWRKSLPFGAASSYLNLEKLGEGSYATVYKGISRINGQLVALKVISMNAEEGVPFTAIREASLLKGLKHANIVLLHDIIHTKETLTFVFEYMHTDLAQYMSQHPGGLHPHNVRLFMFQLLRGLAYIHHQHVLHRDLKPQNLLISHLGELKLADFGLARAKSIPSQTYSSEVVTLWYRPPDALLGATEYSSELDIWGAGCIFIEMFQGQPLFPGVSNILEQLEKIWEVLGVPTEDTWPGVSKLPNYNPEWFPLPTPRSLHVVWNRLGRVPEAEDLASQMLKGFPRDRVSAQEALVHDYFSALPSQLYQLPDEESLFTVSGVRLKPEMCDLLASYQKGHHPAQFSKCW
Sequence of UniProt P49674 (whole entry, looked up): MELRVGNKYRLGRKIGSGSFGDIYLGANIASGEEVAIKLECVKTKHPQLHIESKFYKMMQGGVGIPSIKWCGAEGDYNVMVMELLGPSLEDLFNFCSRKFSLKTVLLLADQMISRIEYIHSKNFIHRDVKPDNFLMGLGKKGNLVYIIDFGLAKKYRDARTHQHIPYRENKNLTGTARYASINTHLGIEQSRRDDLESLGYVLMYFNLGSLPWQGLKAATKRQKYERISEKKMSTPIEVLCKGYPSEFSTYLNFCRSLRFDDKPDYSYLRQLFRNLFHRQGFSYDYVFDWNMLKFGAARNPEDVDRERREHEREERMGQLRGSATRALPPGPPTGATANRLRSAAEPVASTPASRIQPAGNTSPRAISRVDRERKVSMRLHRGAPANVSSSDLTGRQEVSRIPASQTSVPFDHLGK

Sample 1
SMILES: C=CCc1ccc(O)c(-c2cc(CC=C)ccc2O)c1
Read-out: chloride current
Technique: whole-cell voltage clamp
For Anoctamin-1 (ANO1, Homo sapiens, UniProt Q5XXA6, del476-501/M544V); inhibitor; 60 mV holding voltage: IC50 read 107 µM.
Anoctamin-1 (ANO1, Homo sapiens, UniProt Q5XXA6, del476-501/F623A); membrane voltage -20 mV — IC50: 31 µM.
The IC50 was 193 µM (Anoctamin-1 (ANO1, Homo sapiens, UniProt Q5XXA6, del476-501/K629D); inhibitor; 20 mV holding voltage).

Sample 2
Cell line: mouse MPNST tumor cells
Technique: high-content immunofluorescence imaging
Item: nuclear SOX9
Tested at: 10 µM
Time: 12 h
Notes: mean of 2 replicates
Reference: DMSO control
Reading: higher = more nuclear SOX9
For `Nc1nc(F)nc2c1ncn2[C@@H]1O[C@H](CO)[C@@H](O)[C@@H]1O`, “nuclear SOX9 intensity” read 114 % of DMSO and 112 % of DMSO.
Under “nuclear SOX9 intensity”, `CC1CCc2c(N3CCC(O)CC3)c(F)cc3c(=O)c(C(=O)O)cn1c23` (centres unmarked) is recorded as 95.6 % of DMSO.
Under “nuclear SOX9 intensity”, `CC1CCN(CC[C@H]2CCCN2S(=O)(=O)c2cccc(O)c2)CC1` is recorded as 102 % of DMSO.

Sample 3
SMILES: COc1ccc2c(O[C@@H]3C[C@H]4C(=O)N[C@]5(C(=O)O)CC5/C=C\CCCCC[C@H](NC(=O)OC5CCCC5)C(=O)N4C3)cc(-c3csc(NC(=O)C(C)C)n3)nc2c1C (some centres unmarked)
Read-out: cell-free assay
Technique: competition with immobilised ligand
Tested at: 1 µM
The remaining binding was 79% (MKNK1 (Homo sapiens, UniProt Q9BUB5)).
EGFR (Homo sapiens, UniProt P00533, L858R/T790M) — remaining binding: 100%.
The remaining binding was 100% (CSNK1E (Homo sapiens, UniProt P49674)).
It gave 100% for remaining binding (CDK15 (Homo sapiens, UniProt Q96Q40)).
It gave 78% for remaining binding (STK32A (Homo sapiens, UniProt Q8WU08)).
For RIPK4 (Homo sapiens, UniProt P57078): remaining binding read 65%.
It gave 81% for remaining binding (FLT3 (Homo sapiens, UniProt P36888, K663Q)).

Further values, each from its own experiment
For `COc1ccc(Oc2cc(NCCC(F)(F)F)c3ncc(-c4ccc(C(=O)NC5CC5)c(C)c4)n3n2)c(F)c1F`, the cell count was 0.895 and 0.957 (NCI-H1048; Vi-Cell; 750 pM, 3 d; reference: DMSO).

Some of these lines once more (sample 3):
It gave 100% for remaining binding (CDK15 (Homo sapiens, UniProt Q96Q40)).
